# Results of several laboratories.
# Parts stem from different laboratories: compare values within a part only.
# UniProt Q9NQU5, sequence (whole entry, looked up): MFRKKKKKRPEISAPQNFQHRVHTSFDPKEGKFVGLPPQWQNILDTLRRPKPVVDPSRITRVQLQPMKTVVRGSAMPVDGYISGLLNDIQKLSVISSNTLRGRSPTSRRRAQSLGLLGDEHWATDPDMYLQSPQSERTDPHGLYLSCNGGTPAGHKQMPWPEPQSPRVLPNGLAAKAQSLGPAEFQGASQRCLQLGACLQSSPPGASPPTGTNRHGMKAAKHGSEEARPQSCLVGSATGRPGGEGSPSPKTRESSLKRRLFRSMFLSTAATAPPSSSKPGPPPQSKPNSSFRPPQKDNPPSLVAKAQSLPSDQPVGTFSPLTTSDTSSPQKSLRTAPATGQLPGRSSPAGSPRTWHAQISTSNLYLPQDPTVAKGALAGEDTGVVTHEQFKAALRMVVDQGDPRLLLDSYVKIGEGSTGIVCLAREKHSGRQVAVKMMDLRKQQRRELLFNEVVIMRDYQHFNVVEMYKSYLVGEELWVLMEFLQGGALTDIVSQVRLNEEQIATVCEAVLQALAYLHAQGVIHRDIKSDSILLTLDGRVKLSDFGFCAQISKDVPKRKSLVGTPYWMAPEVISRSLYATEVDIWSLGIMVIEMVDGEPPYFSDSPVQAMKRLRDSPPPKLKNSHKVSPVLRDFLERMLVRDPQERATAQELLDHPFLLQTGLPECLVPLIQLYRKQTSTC
# UniProt Q96J92, sequence (whole entry, looked up): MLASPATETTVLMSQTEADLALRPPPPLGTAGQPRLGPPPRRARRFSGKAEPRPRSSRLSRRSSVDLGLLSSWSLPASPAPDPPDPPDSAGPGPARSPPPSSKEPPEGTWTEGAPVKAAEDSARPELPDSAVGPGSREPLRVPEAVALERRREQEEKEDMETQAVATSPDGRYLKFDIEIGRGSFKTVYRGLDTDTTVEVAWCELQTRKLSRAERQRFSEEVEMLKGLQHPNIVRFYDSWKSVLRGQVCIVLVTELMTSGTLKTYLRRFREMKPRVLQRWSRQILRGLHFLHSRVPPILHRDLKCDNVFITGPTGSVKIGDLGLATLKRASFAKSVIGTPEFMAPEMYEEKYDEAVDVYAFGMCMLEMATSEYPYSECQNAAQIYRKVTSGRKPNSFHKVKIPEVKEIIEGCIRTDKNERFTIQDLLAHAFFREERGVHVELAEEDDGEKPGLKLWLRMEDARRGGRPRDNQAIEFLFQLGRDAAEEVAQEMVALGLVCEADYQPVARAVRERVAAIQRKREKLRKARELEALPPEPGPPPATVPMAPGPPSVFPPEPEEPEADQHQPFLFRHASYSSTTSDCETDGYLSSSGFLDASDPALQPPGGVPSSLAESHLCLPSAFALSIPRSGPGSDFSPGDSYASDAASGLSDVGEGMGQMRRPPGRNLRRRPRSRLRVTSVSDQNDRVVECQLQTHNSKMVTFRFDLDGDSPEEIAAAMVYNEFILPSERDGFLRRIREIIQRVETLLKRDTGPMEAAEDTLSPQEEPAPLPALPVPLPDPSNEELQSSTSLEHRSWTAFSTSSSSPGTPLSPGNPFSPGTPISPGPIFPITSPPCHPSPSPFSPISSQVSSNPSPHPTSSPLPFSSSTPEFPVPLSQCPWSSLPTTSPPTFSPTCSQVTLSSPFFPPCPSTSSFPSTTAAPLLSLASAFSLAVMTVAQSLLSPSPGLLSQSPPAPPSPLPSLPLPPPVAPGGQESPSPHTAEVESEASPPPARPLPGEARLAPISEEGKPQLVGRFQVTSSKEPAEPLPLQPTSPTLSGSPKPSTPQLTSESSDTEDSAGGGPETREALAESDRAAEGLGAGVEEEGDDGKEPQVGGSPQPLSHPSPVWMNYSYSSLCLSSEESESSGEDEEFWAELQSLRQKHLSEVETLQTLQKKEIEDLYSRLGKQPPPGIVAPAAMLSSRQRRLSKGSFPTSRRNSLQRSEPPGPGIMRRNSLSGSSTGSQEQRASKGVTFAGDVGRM
# UniProt Q9UF33, sequence (whole entry, looked up): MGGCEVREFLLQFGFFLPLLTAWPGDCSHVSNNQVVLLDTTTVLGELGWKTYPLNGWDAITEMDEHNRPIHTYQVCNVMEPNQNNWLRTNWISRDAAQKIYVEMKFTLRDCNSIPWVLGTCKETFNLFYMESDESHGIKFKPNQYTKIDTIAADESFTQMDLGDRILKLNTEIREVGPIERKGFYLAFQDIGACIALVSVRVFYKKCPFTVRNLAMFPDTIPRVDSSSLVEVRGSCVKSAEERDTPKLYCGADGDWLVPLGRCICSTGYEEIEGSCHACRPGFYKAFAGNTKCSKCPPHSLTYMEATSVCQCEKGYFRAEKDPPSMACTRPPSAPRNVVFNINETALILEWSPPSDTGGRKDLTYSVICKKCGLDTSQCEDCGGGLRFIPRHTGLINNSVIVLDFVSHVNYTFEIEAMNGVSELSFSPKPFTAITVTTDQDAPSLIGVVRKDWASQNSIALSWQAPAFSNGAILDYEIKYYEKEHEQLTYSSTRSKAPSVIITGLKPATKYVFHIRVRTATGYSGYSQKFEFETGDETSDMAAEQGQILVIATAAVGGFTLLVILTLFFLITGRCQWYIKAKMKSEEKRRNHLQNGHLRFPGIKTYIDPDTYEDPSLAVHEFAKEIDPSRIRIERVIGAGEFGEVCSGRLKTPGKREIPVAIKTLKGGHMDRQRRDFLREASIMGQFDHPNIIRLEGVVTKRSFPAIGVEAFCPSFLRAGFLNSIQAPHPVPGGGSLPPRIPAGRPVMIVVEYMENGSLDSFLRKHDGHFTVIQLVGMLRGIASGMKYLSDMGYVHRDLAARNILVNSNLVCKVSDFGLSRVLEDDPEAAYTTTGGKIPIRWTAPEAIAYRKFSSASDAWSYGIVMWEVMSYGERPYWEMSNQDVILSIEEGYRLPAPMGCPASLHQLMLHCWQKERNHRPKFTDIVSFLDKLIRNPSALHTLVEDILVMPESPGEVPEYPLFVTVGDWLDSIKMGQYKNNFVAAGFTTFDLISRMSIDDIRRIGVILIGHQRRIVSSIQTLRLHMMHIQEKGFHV
# UniProt O75914, sequence (whole entry, looked up): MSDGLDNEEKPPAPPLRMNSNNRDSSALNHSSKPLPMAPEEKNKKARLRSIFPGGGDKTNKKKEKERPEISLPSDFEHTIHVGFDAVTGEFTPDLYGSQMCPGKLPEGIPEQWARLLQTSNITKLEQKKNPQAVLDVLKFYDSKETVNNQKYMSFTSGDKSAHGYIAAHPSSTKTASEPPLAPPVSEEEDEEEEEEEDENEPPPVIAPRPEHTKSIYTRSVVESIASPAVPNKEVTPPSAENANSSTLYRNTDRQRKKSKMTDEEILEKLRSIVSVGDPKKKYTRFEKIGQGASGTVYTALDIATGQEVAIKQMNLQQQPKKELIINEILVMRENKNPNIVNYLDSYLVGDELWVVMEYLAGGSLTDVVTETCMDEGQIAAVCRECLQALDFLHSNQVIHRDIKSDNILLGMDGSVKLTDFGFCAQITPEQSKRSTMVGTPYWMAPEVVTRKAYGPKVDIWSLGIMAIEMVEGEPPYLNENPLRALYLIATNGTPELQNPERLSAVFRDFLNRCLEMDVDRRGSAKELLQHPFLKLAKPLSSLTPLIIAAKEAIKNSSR
# UniProt Q96BR1, sequence (whole entry, looked up): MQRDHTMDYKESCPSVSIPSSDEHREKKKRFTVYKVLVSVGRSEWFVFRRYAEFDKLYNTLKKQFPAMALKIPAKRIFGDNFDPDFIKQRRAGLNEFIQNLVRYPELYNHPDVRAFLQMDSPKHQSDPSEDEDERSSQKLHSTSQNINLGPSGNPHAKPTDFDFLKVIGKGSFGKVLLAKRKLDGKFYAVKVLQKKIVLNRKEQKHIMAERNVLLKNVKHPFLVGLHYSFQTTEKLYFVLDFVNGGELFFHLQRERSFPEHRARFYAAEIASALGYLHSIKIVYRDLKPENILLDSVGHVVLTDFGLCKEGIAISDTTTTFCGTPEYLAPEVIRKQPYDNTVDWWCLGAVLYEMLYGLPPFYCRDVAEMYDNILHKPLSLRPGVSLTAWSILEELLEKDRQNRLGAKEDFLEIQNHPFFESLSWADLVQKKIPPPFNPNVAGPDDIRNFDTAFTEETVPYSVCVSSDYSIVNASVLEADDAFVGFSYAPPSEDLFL

# Study 1
# Host: human
# Medium: microsomes or S9
# Tested at: 2 µM
# Time: 0.5 h
Structure (SMILES),remaining compound [%]
CCN(c1ccccc1)c1nc(N(CC)c2ccccc2)[nH]c(=O)n1,92.3
CCn1cc(NS(=O)(=O)c2cn(C)c(=O)n(C)c2=O)ccc1=O,> 100
CCOC(=O)c1c(=O)n(-c2ccccc2)nc2cc(C(C)=O)ccc12,38.4
O=C(Cn1nc2n(CCc3ccccc3)c(=O)c3ccccc3n2c1=O)Nc1ccc2c(c1)OCO2,70.5
CC(C)c1noc(CCCn2ccc(-c3ccc(-c4nnn[nH]4)cc3)n2)n1,19.9
CCOC(=O)Cc1cc(=O)n2nc(-c3ccccc3)c(-c3ccccc3)c2[nH]1,54.9
COc1cc(C2N=C(N3CCc4ccccc43)N=C3NC(C)=CC(=O)N32)ccc1O (stereo not drawn),23.2
O=C(CN1C(=O)c2ccccc2N2C(=O)c3ccccc3C12)Nc1ccncc1 (stereo not drawn),68.2
Cc1ccc(C(C)C)c(OCC(=O)NC2=NCC(=O)N2c2ccccc2)c1,< 1

# Study 2
# Target: Activated CDC42 kinase 1 (TNK2, Homo sapiens, UniProt Q07912)
# UniProt Q07912, sequence (whole entry, looked up): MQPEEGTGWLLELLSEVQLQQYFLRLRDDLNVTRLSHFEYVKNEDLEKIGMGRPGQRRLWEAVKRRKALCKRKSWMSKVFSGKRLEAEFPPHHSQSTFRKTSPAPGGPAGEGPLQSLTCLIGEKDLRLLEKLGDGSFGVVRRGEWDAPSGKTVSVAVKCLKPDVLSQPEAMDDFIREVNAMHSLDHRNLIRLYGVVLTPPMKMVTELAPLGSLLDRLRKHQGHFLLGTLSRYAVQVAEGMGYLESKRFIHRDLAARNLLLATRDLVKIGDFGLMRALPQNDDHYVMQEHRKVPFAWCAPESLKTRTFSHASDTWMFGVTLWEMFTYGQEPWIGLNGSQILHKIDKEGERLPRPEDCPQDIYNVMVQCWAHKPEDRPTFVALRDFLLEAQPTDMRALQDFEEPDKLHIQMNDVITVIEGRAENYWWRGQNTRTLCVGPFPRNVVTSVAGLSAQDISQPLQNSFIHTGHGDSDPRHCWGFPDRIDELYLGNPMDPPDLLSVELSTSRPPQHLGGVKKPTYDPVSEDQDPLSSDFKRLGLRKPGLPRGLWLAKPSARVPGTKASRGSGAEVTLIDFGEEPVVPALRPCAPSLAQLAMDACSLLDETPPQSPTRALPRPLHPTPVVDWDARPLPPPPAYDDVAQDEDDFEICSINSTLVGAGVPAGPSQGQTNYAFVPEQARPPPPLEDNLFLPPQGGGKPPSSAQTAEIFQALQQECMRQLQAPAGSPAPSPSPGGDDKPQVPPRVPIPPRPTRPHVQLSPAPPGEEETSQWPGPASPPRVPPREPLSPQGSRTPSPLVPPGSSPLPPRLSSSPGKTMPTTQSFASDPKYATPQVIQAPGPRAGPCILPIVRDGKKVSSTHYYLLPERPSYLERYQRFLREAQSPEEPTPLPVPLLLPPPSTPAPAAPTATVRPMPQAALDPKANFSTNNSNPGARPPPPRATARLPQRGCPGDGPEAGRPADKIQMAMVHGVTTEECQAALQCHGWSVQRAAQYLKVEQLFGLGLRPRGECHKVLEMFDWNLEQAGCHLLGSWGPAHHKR
# Observed: enzyme activity
# Action: inhibitor
# Tested at: 0.5 µM
# Relative to: control
Structure (SMILES),remaining activity
Ic1cccc(CSc2nnc(-c3ccncc3)o2)c1,101%
Cc1cn(-c2cc(NC(=O)c3ccc(C)c(Nc4nccc(-c5cccnc5)n4)c3)cc(C(F)(F)F)c2)cn1,82.6%
c1ccc(-c2[nH]ncc2-c2ccnc3ccccc23)nc1,96.2%
CCN(CC)CCNC(=O)c1c(C)[nH]c(/C=C2\C(=O)Nc3ccc(Cl)cc32)c1C,22.6%
C[C@@H]1CCN(C(=O)CC#N)C[C@@H]1N(C)c1ncnc2[nH]ccc12,87.1%
COc1cc2ncnc(Nc3ccc(O)c(Br)c3)c2cc1OC,10.5%
CN(C)C[C@H]1CCn2c(c(C3=C(c4cn(C)c5ccccc45)C(=O)NC3=O)c3ccccc32)C1,96.3%
Cc1nc2cc3nc(-c4cccs4)cnc3cc2n1C,100%

# Study 3
# Compound: O=c1nc(-c2ccccn2)sc2ccccc12
# Method: competition with immobilised ligand
# Tested at: 1 µM
target,observed,remaining binding
"Tyrosine-protein kinase ABL1, phosphorylated (ABL1, Homo sapiens, UniProt P00519, E255K)",binding,100%
"PAK6 (Homo sapiens, UniProt Q9NQU5)",cell-free assay,100%
"NEK5 (Homo sapiens, UniProt Q6P3R8)",binding,78%
"GRK7 (Homo sapiens, UniProt Q8WTQ7)",binding,89%
"DAPK1 (Homo sapiens, UniProt P53355)",binding,100%
"PAK4 (Homo sapiens, UniProt O96013)",cell-free assay,86%
"COQ8B (Homo sapiens, UniProt Q96D53)",cell-free assay,60%
"TIE1 (Homo sapiens, UniProt P35590)",cell-free assay,91%
"EPHA6 (Homo sapiens, UniProt Q9UF33)",cell-free assay,100%
"SGK3 (Homo sapiens, UniProt Q96BR1)",binding,100%
"WNK4 (Homo sapiens, UniProt Q96J92)",binding,100%
"Tyrosine-protein kinase ABL1, phosphorylated (ABL1, Homo sapiens, UniProt P00519, Q252H)",binding,82%
"PAK3 (Homo sapiens, UniProt O75914)",cell-free assay,84%
"ROS1 (Homo sapiens, UniProt P08922)",cell-free assay,100%
"CDK4 (Homo sapiens, UniProt P11802)",binding,100%
"EPHA3 (Homo sapiens, UniProt P29320)",cell-free assay,87%
"TLK1 (Homo sapiens, UniProt Q9UKI8)",cell-free assay,93%
"MTOR (Homo sapiens, UniProt P42345)",cell-free assay,100%
"ACVR1 (Homo sapiens, UniProt Q04771)",cell-free assay,79%

# Study 4
# Cell line: Huh-7
# Tested at: 10 µM
# Time: 24 h
Structure (SMILES),viability [%]
C=CC1=C(C(=O)O)N2C(=O)[C@@H](NC(=O)/C(=N\O)c3csc(N)n3)[C@H]2SC1,96.8
CCCCCCc1ccc(O)cc1O,91.6
CN1CCC(OC(c2ccccc2)c2ccccc2)CC1,98.4
CCOC(=O)CCC(=O)O[C@H]1[C@H](O[C@@H]2[C@@H](C)[C@H](O[C@H]3C[C@@](C)(OC)[C@@H](O)[C@H](C)O3)[C@@H](C)C(=O)O[C@H](CC)[C@@](C)(O)[C@H](O)[C@@H](C)C(=O)[C@H](C)C[C@@]2(C)O)O[C@H](C)C[C@@H]1N(C)C,107
Nc1nc2nc[nH]c2c(=S)[nH]1,68.6
CN1CCC[C@@H]1Cc1c[nH]c2ccc(CCS(=O)(=O)c3ccccc3)cc12,97.6

# A few entries again (study 4):
Structure (SMILES),viability [%]
C=CC1=C(C(=O)O)N2C(=O)[C@@H](NC(=O)/C(=N\O)c3csc(N)n3)[C@H]2SC1,96.8
CCCCCCc1ccc(O)cc1O,91.6
CN1CCC(OC(c2ccccc2)c2ccccc2)CC1,98.4
CCOC(=O)CCC(=O)O[C@H]1[C@H](O[C@@H]2[C@@H](C)[C@H](O[C@H]3C[C@@](C)(OC)[C@@H](O)[C@H](C)O3)[C@@H](C)C(=O)O[C@H](CC)[C@@](C)(O)[C@H](O)[C@@H](C)C(=O)[C@H](C)C[C@@]2(C)O)O[C@H](C)C[C@@H]1N(C)C,107
Nc1nc2nc[nH]c2c(=S)[nH]1,68.6
CN1CCC[C@@H]1Cc1c[nH]c2ccc(CCS(=O)(=O)c3ccccc3)cc12,97.6
